Experimental data collected from several papers.
Lines come from different studies, so protocols differ. Numbers after ± are the reported error.

CC(C)C[C@H](NC(=O)[C@H](CCCCN)NC(=O)[C@H](CCC(=O)O)NC(=O)[C@H](C)NC(=O)[C@@H](NC(=O)[C@H](CCCCN)NC(=O)[C@H](CC(=O)O)NC(=O)[C@H](Cc1ccc(O)cc1)NC(=O)[C@H](Cc1ccccc1)NC(=O)[C@H](C)NC(=O)[C@H](CCCCN)NC(=O)[C@H](CC(C)C)NC(=O)[C@H](Cc1c[nH]c2ccccc12)NC(=O)[C@@H](N)CC(=O)O)C(C)C)C(=O)N[C@@H](CCCCN)C(=O)N[C@@H](CCC(=O)O)C(=O)N[C@@H](C)C(=O)N[C@@H](Cc1ccccc1)C(=O)N1CCC[C@H]1C(=O)N[C@@H](CC(=O)O)C(=O)N[C@@H](Cc1c[nH]c2ccccc12)C(=O)N[C@@H](C)C(=O)N[C@@H](CCCCN)C(=O)N[C@@H](C)C(=O)N[C@@H](C)C(=O)N[C@@H](Cc1ccc(O)cc1)C(=O)N[C@@H](CC(=O)O)C(=O)N[C@@H](CCCCN)C(=O)N[C@@H](C)C(=O)N[C@@H](C)C(=O)N[C@@H](CCC(=O)O)C(=O)N[C@@H](CCCCN)C(=O)N[C@@H](C)C(=O)N[C@@H](CCCCN)C(=O)N[C@@H](CCC(=O)O)C(=O)N[C@@H](C)C(=O)N[C@@H](C)C(=O)O  Vss (LC-MS/MS; cynomolgus monkey, male, plasma; IV infusion, 75 mg/kg/dose, day 1, 30 min infusion): 0.053 L/kg
COc1cc(NC(=O)C(=O)c2c(C)n(Cc3ccc(Cl)cc3)c3ccc(C)cc23)ccn1  oral bioavailability (cynomolgus monkey, male and female, plasma; oral, 10 mg/kg, mean): 17.5%
CCCCCCCC(=O)OC[C@H](NC(=O)[C@H](CO)NC(=O)CN)C(=O)N[C@@H](Cc1ccccc1)C(=O)N[C@@H](CC(C)C)C(=O)N[C@@H](CO)C(=O)N1CCC[C@H]1C(=O)N[C@@H](CCC(=O)O)C(=O)N[C@@H](Cc1cnc[nH]1)C(=O)N[C@@H](CCC(N)=O)C(=O)N[C@@H](CCCNC(=N)N)C(=O)N[C@H](C(=O)N[C@@H](CCC(N)=O)C(=O)N[C@@H](CCC(N)=O)C(=O)N[C@@H](CCCNC(=N)N)C(=O)N[C@@H](CCCCN)C(=O)N[C@@H](CCC(=O)O)C(=O)N[C@@H](CO)C(=O)N[C@@H](CCCCN)C(=O)N[C@@H](CCCCN)C(=O)N1CCC[C@H]1C(=O)N1CCC[C@H]1C(=O)N[C@@H](C)C(=O)N[C@@H](CCCCN)C(=O)N[C@@H](CC(C)C)C(=O)N[C@@H](CCC(N)=O)C(=O)N1CCC[C@H]1C(=O)N[C@@H](CCCNC(=N)N)C(=O)O)C(C)C  peak concentration fold increase (human, plasma; intravenous infusion, 1 µg/kg/h; relative to: baseline): 118 fold
CC[C@H](C)C(=O)N1CCC(NC(=O)Nc2ccc(OC(F)(F)F)c(F)c2)CC1  participants with any Treatment‐Related TEAE (healthy volunteers, both sexes; oral, 8 mg single dose, fasted state): 0%
O=C(C[P+]([Au-][Cl])(c1ccccc1)c1ccccc1)[O][Ti+2][O]C(=O)C[P+]([Au-][Cl])(c1ccccc1)c1ccccc1.c1cc[cH-]c1.c1cc[cH-]c1  time to death (C57BL/6 mice, female; subcutaneous, 15 mg/kg/day): < 24 h
CC(C)C[C@@H](NC(=O)[C@@H](CCCNC(=N)N)NC(=O)[C@@H](Cc1c[nH]cn1)NC(=O)[C@@H](Cc1c[nH]c2ccccc12)NC(=O)[C@@H](Cc1c[nH]cn1)NC(=O)[C@@H](Cc1ccccc1)NC(=O)[C@H](NC(=O)[C@@H](Cc1ccc(O)cc1)NC(=O)CNC(=O)CNC(=O)CCOCCOCCOCCNC(=O)CN1CCN(CC(=O)O)CCN(CC(=O)O)CC1)[C@H](C)O)C(=O)N[C@H](CC(N)=O)C(=O)N1CCC[C@@H]1C(=O)O [gallium-68 labelled]  blood half-life (male C57BL/6 mice, blood; iv, 18.5 MBq): 27 min
CC[C@H](C)[C@@H]1NC(=O)[C@H](CCCCN)NC(=O)[C@H](CCCCN)NC(=O)[C@H](Cc2ccc(O)cc2)NC(=O)[C@H](CC(C)C)NC(=O)[C@@H]2CCCN2C(=O)[C@H](C)NC(=O)CNC(=O)CNC(=O)[C@H](CO)NC(=O)CNC(=O)CNC(=O)[C@H](CO)NC(=O)[C@H](CCC(=O)O)NC(=O)[C@H](CC(C)C)NC(=O)[C@H](CC(C)C)NC(=O)[C@H](CCCCN)NC(=O)[C@H](CCCCN)NC(=O)[C@H]([C@@H](C)CC)NC(=O)[C@H]([C@@H](C)CC)NC(=O)[C@H](CCCCN)NC(=O)[C@H](CCCCN)NC(=O)[C@H](Cc2ccc(O)cc2)NC(=O)[C@H](CC(C)C)NC(=O)[C@@H]2CCCN2C(=O)[C@H](C)NC(=O)CNC(=O)CNC(=O)[C@H](CO)NC(=O)CNC(=O)CNC(=O)[C@H](CO)NC(=O)[C@H](CCC(=O)O)NC(=O)[C@H](CC(C)C)NC(=O)[C@H](CC(C)C)NC(=O)[C@H](CCCCN)NC(=O)[C@H](CCCCN)NC(=O)[C@H]([C@@H](C)CC)NC1=O  remaining intact peptide (25% human serum; 50 µM, 24 h; relative to: 0 h control): 88.8 ± 2.8%
CN(C)C(CNC(=O)Nc1cc(C(F)(F)F)ccc1N1CCOCC1)c1ccncc1 (stereo not drawn)  serum alkaline phosphatase (mouse, serum; intraperitoneal, 360 mg/kg single dose): 329 U/L
COc1ccc(C2=Nn3c(N/N=C4/C(=O)Nc5ccccc54)nnc3SC2)cc1  toxicity (chick embryo, chorioallantoic membrane; 40 µM): toxic
C[C@H]1C(OC(=O)C(Cl)Cl)O[C@@H]2O[C@@]3(C)CC[C@H]4[C@H](C)CCC1[C@@]24OO3 (stereo partly drawn)  dead embryos (Tg(fli1:EGFP) zebrafish embryos; 1.0 µg/mL, up to 48 hpf): 0 count
CC[C@H](C)[C@H](NC(=O)[C@H](CC(=O)O)NC(=O)[C@H](CO)NC(=O)[C@H](CCC(N)=O)NC(=O)[C@H](C)NC(=O)[C@H](CC(=O)O)NC(=O)[C@H](CCC(=O)O)NC(=O)[C@H](Cc1c[nH]cn1)NC(=O)[C@H](Cc1ccc(O)cc1)NC(=O)[C@H](C)NC(=O)[C@H](CC(=O)O)NC(=O)[C@H](CCC(=O)O)NC(=O)[C@H](Cc1c[nH]cn1)NC(=O)[C@H](Cc1ccc(O)cc1)NC(=O)[C@H](C)NC(=O)[C@H](CC(=O)O)NC(=O)[C@H](CCC(=O)O)NC(=O)[C@H](Cc1c[nH]cn1)NC(=O)[C@H](Cc1ccc(O)cc1)NC(=O)[C@H](C)NC(=O)[C@H](CC(=O)O)NC(=O)[C@H](CCC(=O)O)NC(=O)[C@H](Cc1c[nH]cn1)NC(=O)[C@H](Cc1ccc(O)cc1)NC(=O)[C@H](C)NC(=O)[C@H](CC(=O)O)NC(=O)[C@H](CCC(=O)O)NC(=O)[C@H](Cc1c[nH]cn1)NC(=O)[C@@H](N)Cc1ccc(O)cc1)C(=O)N[C@H](C(=O)N[C@@H](C)C(=O)N[C@@H](Cc1c[nH]cn1)C(=O)N[C@@H](CC(C)C)C(=O)N[C@@H](CC(C)C)C(=O)O)C(C)C  NE share of white cells (normal mouse, blood; dose not given): 18.1 ± 2.8%
CCN(CC)c1ccc2c(-c3ccccc3C(=O)OCCOCC[18F])c3ccc(=[N+](CC)CC)cc-3oc2c1  radioactivity concentration (microPET; rat, liver; dose not given, 5 min post injection): 59 ± 2 kBq/cm³
CNC(=O)Oc1cc(C)c([S+](C)[O-])c(C)c1 (stereo not drawn)  percent metabolized (human liver mitochondrial preparation; 1 µM, 30 min, 0.5 mg/mL protein): 5.51%
CC[C@H](C)[C@H](NC(=O)[C@H](Cc1ccccc1)NC(=O)[C@@H]1CCCN1C(=O)[C@H](CCCCN)NC(=O)[C@H](CCCCN)NC(=O)[C@H](Cc1ccccc1)NC(=O)[C@H](Cc1ccccc1)NC(=O)[C@@H](C)NC(=O)[C@@H](N)Cc1ccc(O)cc1)C(=O)N[C@@H](CC(C)C)C(=O)O  heart rate (anesthetized rat; intrathecal, 10 nmol/rat, 10 min): 418 ± 32 beats/min
CN[C@](C)(C[18F])C(=O)O  tracer uptake (mouse, muscle; 30 min, tumour-bearing): 1.4 %ID/g
N=C(N)NCc1ccc(C(=O)NCCCC[C@H](NC(=O)CCCCCCC(=O)NCCCC[C@H](NC(=O)N[C@@H](CCC(=O)O)C(=O)O)C(=O)O)C(=O)O)cc1[211At]  tissue uptake (SCID mouse, PC-3 xenografts, muscle; 2 h): 0.21 ± 0.03 %ID/g
CCCCCCCCCCCCC(=O)O.O=C1CCCC2C3CCCN4CCCC(CN12)C34 (stereo not drawn)  entropic term −TΔS of aggregation (electrical conductivity; water; 308.15 K): -33.6 kJ/mol
CSCC[C@H](NC(=O)CNC(=O)[C@H](CC(=O)O)NC(=O)[C@@H](NC(=O)[C@@H](NC(=O)[C@@H](NC(=O)CNC(=O)[C@H](CCC(N)=O)NC(=O)[C@H](CCSC)NC(=O)[C@H](CC(=O)O)NC(=O)[C@H](C)NC(=O)[C@H](C)NC(=O)[C@@H](NC(=O)[C@H](CO)NC(=O)[C@@H](N)CC(C)C)[C@@H](C)O)C(C)C)C(C)C)[C@@H](C)O)C(=O)N[C@@H](C)C(=O)N[C@@H](CO)C(=O)NCC(=O)N[C@@H](CC(C)C)C(=O)N[C@@H](CC(=O)O)C(=O)N[C@@H](CCCCN)C(=O)N[C@@H](CC(=O)O)C(=O)N[C@@H](Cc1ccc(O)cc1)C(=O)N[C@@H](CC(C)C)C(=O)N[C@@H](CCCCN)C(=O)N1CCC[C@H]1C(=O)N[C@@H](CC(=O)O)C(=O)N[C@@H](CC(=O)O)C(=O)O  terminal half-life (t1/2γ) (LC-MS/MS; patients, serum; intravenous infusion, 3.33 mg/kg): 130 min
CC[C@H](C)[C@H](NC(=O)[C@H](Cc1ccccc1)NC(=O)[C@H](CC(=O)O)NC(=O)[C@H](CCCN)NC(=O)[C@H](Cc1ccccc1)NC(=O)[C@H](Cc1ccccc1)NC(=O)[C@H](CCCCN)NC(=O)[C@H](CCCN)NC(=O)[C@H](CC(C)C)NC(=O)[C@H](CCCNC(=N)N)NC(=O)[C@H](CCSC)NC(=O)[C@H](C)N)C(=O)N[C@@H](CC(C)C)C(=O)N[C@@H](CCC(N)=O)C(=O)N[C@@H](CCCNC(=N)N)C(=O)N[C@@H](CCCCN)C(=O)N[C@@H](CCCCN)C(=O)O  helicity (circular dichroism; 20% TFE in PBS; 200 µM, pH 7.4, 25 °C): 18.5%
CCC(CC)OC1C=C(C(=O)OC(C)OC(=O)C(N)C(C)C)CC(NC(=N)N)C1NC(C)=O (mixture of isomers)  oral bioavailability (mouse (fasted); oral, 10 mg/kg; relative to: 1 mg/kg intravenous): 48%
CCOP(=O)(OCC)OCCCCOC(=O)CC1=C(C)/C(=C/c2ccc([S+](C)[O-])cc2)c2ccc(F)cc21 (stereo not drawn)  AUC(0-24 h) (rat, muscle; topical, dose not given): > 4 µmol·h/g

Repeated from above:
CC[C@H](C)C(=O)N1CCC(NC(=O)Nc2ccc(OC(F)(F)F)c(F)c2)CC1  participants with any Treatment‐Related TEAE (healthy volunteers, both sexes; oral, 8 mg single dose, fasted state): 0%
O=C(C[P+]([Au-][Cl])(c1ccccc1)c1ccccc1)[O][Ti+2][O]C(=O)C[P+]([Au-][Cl])(c1ccccc1)c1ccccc1.c1cc[cH-]c1.c1cc[cH-]c1  time to death (C57BL/6 mice, female; subcutaneous, 15 mg/kg/day): < 24 h
CC(C)C[C@@H](NC(=O)[C@@H](CCCNC(=N)N)NC(=O)[C@@H](Cc1c[nH]cn1)NC(=O)[C@@H](Cc1c[nH]c2ccccc12)NC(=O)[C@@H](Cc1c[nH]cn1)NC(=O)[C@@H](Cc1ccccc1)NC(=O)[C@H](NC(=O)[C@@H](Cc1ccc(O)cc1)NC(=O)CNC(=O)CNC(=O)CCOCCOCCOCCNC(=O)CN1CCN(CC(=O)O)CCN(CC(=O)O)CC1)[C@H](C)O)C(=O)N[C@H](CC(N)=O)C(=O)N1CCC[C@@H]1C(=O)O [gallium-68 labelled]  blood half-life (male C57BL/6 mice, blood; iv, 18.5 MBq): 27 min
